{"data": "Results from different studies", "note": "Lines come from different studies, so protocols differ. Several values in a cell are separate wells, animals, samples, runs or records. ± gives the spread as reported."}
{"SMILES": "C#Cc1c(F)ccc2cc(O)cc(-c3ncc4c(N5CC6CCC(C5)N6C(=O)OC(C)OC(=O)C5CCOCC5)nc(OC[C@@]56CCCN5C[C@H](F)C6)nc4c3F)c12 (some centres unmarked)", "test": "measured: prodrug", "test system": "mouse whole blood", "conditions": "1 µM", "quantity": "t1/2", "result": "5.37 min"}
{"SMILES": "C[C@H](O)[C@@H](NC(=O)[C@H]1CCCN1C(=O)[C@@H](CCCCN)NC(=O)[C@@H](CO)NC(=O)[C@@H](Cc1ccc(O)cc1)NC(=O)[C@@H](CC(N)=O)NC(=O)CCOCCOCCOCCNC(=O)CN1CCN(CC(=O)O)CCN(CC(=O)O)CCN(CC(=O)O)CC1)C(=O)N[C@H](CC(=O)O)C(=O)N[C@H](CCCNC(=N)N)C(=O)N[C@H](CCC(N)=O)C(=O)N[C@H](Cc1ccc(O)cc1)C(=O)N[C@H](Cc1c[nH]cn1)C(=O)N[C@H](Cc1ccccc1)C(N)=O [copper-64 labelled]", "test system": "C57BL/6J mice, bone", "conditions": "intravenous, 1.85 MBq, 1.333 h, radiolabelled", "quantity": "tissue uptake", "result": "0.19 ± 0.02 %ID/g"}
{"SMILES": "CC(CCC(=O)NCC(=O)O)C1CCC2C3CCC4CC(OC5OC(C(=O)O)C(O)C(O)C5O)CCC4(C)C3CC(O)C12C (centres unmarked)", "test system": "women, T/C genotype, plasma", "conditions": "dose not given, geometric mean", "quantity": "glucuronide to parent ratio", "result": 0.7}
{"SMILES": "CN1Cc2cc(Cl)ccc2-n2c(nnc2C2CCN(c3cccc([18F])n3)CC2)C1", "test system": "C57BL/6 mouse male, blood", "conditions": "intravenous, dose not given, 5 min, with: blocking agent 10 mg/kg", "quantity": "tissue uptake", "result": "3.29 ± 0.72 %ID/g"}
{"SMILES": "CC[C@H](C)[C@H](NC(=O)[C@H](CCCCN)NC(=O)CNC(=O)[C@H](CC(C)C)NC(=O)[C@H](Cc1ccccc1)NC(=O)[C@H](CCCCN)NC(=O)[C@H](CO)NC(=O)[C@H](Cc1ccccc1)NC(=O)[C@H](Cc1c[nH]c2ccccc12)NC(=O)[C@H](CCC(N)=O)NC(=O)[C@@H](NC(=O)[C@H](Cc1ccccc1)NC(=O)CCCCCNC(=O)CN1CCN(CC(=O)O)CCN(CC(=O)O)CCN(CC(=O)O)CC1)C(C)C)C(=O)N[C@@H](CCC(=O)O)C(=O)N1CCC[C@H]1C(=O)N[C@@H](CC(=O)O)C(=O)N[C@H](C(=O)N[C@@H](CO)C(=O)N[C@@H](CCC(N)=O)C(=O)N[C@H](C(=O)N[C@@H](CCC(N)=O)C(=O)N[C@@H](CC(=O)O)C(=O)N1CCC[C@H]1C(=O)N[C@@H](CC(N)=O)C(=O)N[C@@H](CC(=O)O)C(=O)N[C@@H](CCC(N)=O)C(=O)N[C@@H](Cc1ccc(O)cc1)C(=O)N[C@@H](CCC(=O)O)C(=O)N1CCC[C@H]1C(=O)N[C@@H](Cc1ccccc1)C(=O)O)C(C)C)C(C)C [copper-64 labelled]", "test system": "C57BL/6 mice, male, tumour-free, pancreas", "conditions": "4 h", "quantity": "tissue uptake", "result": "1.49 ± 0.2 %ID/g"}
{"SMILES": "CSCC[C@H](NC(=O)[C@@H](NC(=O)[C@H](CC(C)C)NC(=O)[C@@H](NC(=O)[C@H](Cc1c[nH]cn1)NC(=O)CCCCCNC(=O)[C@H](CCCNC(=N)N)NC(=O)[C@H](CCCNC(=N)N)NC(=O)[C@H](CCCNC(=N)N)NC(=O)[C@H](CCC(N)=O)NC(=O)[C@H](CCCNC(=N)N)NC(=O)[C@H](CCCNC(=N)N)NC(=O)[C@H](CCCCN)NC(=O)[C@H](CCCCN)NC(=O)[C@H](CCCNC(=N)N)NC(=O)CNC(=O)[C@@H](N)Cc1ccc(O)cc1)C(C)C)C(C)C)C(=O)N[C@@H](CS)C(=O)N[C@@H](C)C(=O)N[C@H](C(N)=O)[C@@H](C)O", "test system": "C57BL/6J mice", "conditions": "Alzet osmotic pump, 3 mg/kg, 8 weeks", "quantity": "hemoglobin", "result": "11.5 g/dL and 12.8 g/dL and 8.4 g/dL"}
{"SMILES": "NC1CCN(C(=O)Oc2ccc(C3CCCC4(C3)OOC3(O4)C4CC5CC(C4)CC3C5)cc2)CC1 (racemic)", "test system": "male ICR mice, plasma", "conditions": "oral, 50 mg/kg", "quantity": "Cmax", "result": "565 ng/mL"}
{"SMILES": "C=C/C=C/C[C@@H](C)[C@@H](O)[C@H]1C(=O)N[C@@H](CC)C(=O)N(C)CC(=O)N(C)[C@@H](CC(C)C)C(=O)N[C@@H](C(C)C)C(=O)N(C)[C@@H](CC(C)C)C(=O)N[C@@H](C)C(=O)N[C@H](C)C(=O)N(C)[C@@H](CC(C)C)C(=O)N(C)[C@@H](CC(C)C)C(=O)N(C)[C@@H](C(C)C)C(=O)N1C", "test system": "male Wistar Kyoto rat", "conditions": "intraperitoneal, 0.5 mg/kg/day, day 18", "scale": "relative to: vehicle", "quantity": "fractional chloride excretion", "result": "no effect"}
{"SMILES": "O=C1NC2(CC2)COc2ncc(F)cc2[C@H]2COCCN2c2ccn3ncc1c3n2", "test system": "Sprague-Dawley rats, female, blood", "conditions": "oral, 10 mg/kg/day, end of recovery, 4-week subacute toxicity", "quantity": "haematocrit", "result": "39.8 ± 3.5%"}
{"SMILES": "COCCCCNC(=O)CC(Cc1ccc(F)cc1)NC(=O)C(Cc1ccc(Cl)cc1Cl)NC(=O)C(N)Cc1ccccc1C#N (centres unmarked)", "test": "metabolic stability", "test system": "CD-1 mouse, liver microsomes", "conditions": "1 µM", "quantity": "microsomal CLint", "result": "50 µL/min/mg"}
{"SMILES": "CC(=O)N(Cc1ccccc1)[C@@H](C)C(=O)N(CCO)[C@@H](C)C(=O)N(Cc1c[nH]c2cc(Cl)ccc12)[C@@H](C)C(=O)N(CCO)[C@@H](C)C(=O)N(CCC(C)(C)C)[C@@H](C)C(N)=O", "test system": "PAMPA", "conditions": "10 µM, 4 h, pH 7.4", "quantity": "Papp", "result": "0.14 ×10⁻⁶ cm/s"}
{"SMILES": "CC(=O)NCCCC[C@@H]1NC(=O)[C@H](Cc2c[nH]c3c(C)cccc23)NC(=O)[C@H]([C@@H](C)O)NC(=O)[C@H](CC(N)=O)NC(=O)[C@@H](NC(C)=O)C(C)(C)SSC(C)(C)[C@@H](C(=O)N[C@@H](Cc2ccc(OCCN)cc2)C(=O)N[C@@H](Cc2ccc3ccccc3c2)C(=O)NC2(C(=O)N[C@@H](CCC(=O)O)C(=O)N[C@@H](CC(N)=O)C(=O)N[C@@H](Cc3cccnc3)C(=O)N(C)CC(N)=O)CCOCC2)NC1=O", "test system": "human, plasma", "conditions": "oral, 25 mg, single dose, healthy volunteers", "quantity": "CL/F", "result": "4530 L/h"}
{"SMILES": "CSCC[C@H](N)C(=O)N[C@@H](C)C(=O)N[C@@H](Cc1c[nH]c2ccccc12)C(=O)N[C@@H](Cc1c[nH]cn1)C(=O)N[C@@H](CC(=O)O)C(=O)N[C@@H](CC(=O)O)C(=O)N[C@@H](CCC(=O)O)C(=O)N[C@@H](CCC(=O)O)C(=O)N[C@@H](Cc1ccccc1)C(=O)N[C@@H](C)C(=O)N[C@@H](CCCNC(=N)N)C(=O)N[C@@H](CCCNC(=N)N)C(=O)N[C@@H](CCCNC(=N)N)C(=O)N[C@@H](CCCNC(=N)N)C(=O)NCCCCCC(=O)NCCCCC(NC(=O)CCCCCNC(=O)[C@H](CCCNC(=N)N)NC(=O)[C@H](CCCNC(=N)N)NC(=O)[C@H](CCCNC(=N)N)NC(=O)[C@H](CCCNC(=N)N)NC(=O)[C@H](C)NC(=O)[C@H](Cc1ccccc1)NC(=O)[C@H](CCC(=O)O)NC(=O)[C@H](CCC(=O)O)NC(=O)[C@H](CC(=O)O)NC(=O)[C@H](CC(=O)O)NC(=O)[C@H](Cc1c[nH]cn1)NC(=O)[C@H](Cc1c[nH]c2ccccc12)NC(=O)[C@H](C)NC(=O)[C@@H](N)CCSC)C(=O)NCCCCC(NC(=O)C(CCCCNC(=O)CCCCCNC(=O)[C@H](CCCNC(=N)N)NC(=O)[C@H](CCCNC(=N)N)NC(=O)[C@H](CCCNC(=N)N)NC(=O)[C@H](CCCNC(=N)N)NC(=O)[C@H](C)NC(=O)[C@H](Cc1ccccc1)NC(=O)[C@H](CCC(=O)O)NC(=O)[C@H](CCC(=O)O)NC(=O)[C@H](CC(=O)O)NC(=O)[C@H](CC(=O)O)NC(=O)[C@H](Cc1c[nH]cn1)NC(=O)[C@H](Cc1c[nH]c2ccccc12)NC(=O)[C@H](C)NC(=O)[C@@H](N)CCSC)NC(=O)CCCCCNC(=O)[C@H](CCCNC(=N)N)NC(=O)[C@H](CCCNC(=N)N)NC(=O)[C@H](CCCNC(=N)N)NC(=O)[C@H](CCCNC(=N)N)NC(=O)[C@H](C)NC(=O)[C@H](Cc1ccccc1)NC(=O)[C@H](CCC(=O)O)NC(=O)[C@H](CCC(=O)O)NC(=O)[C@H](CC(=O)O)NC(=O)[C@H](CC(=O)O)NC(=O)[C@H](Cc1c[nH]cn1)NC(=O)[C@H](Cc1c[nH]c2ccccc12)NC(=O)[C@H](C)NC(=O)[C@@H](N)CCSC)C(N)=O (some centres unmarked)", "test system": "mouse C57BL/6 female, small intestine", "conditions": "3 h, radioiodinated peptide", "scale": "relative to: total radioactivity", "quantity": "tissue distribution", "result": "15.3% and 18.8% and 13.3%"}
{"SMILES": "CCCCCCCCCCCCCCCC(=O)N[C@@H](CCC(=O)NCCOCCOCCC(=O)NCCOCCOCCC(=O)NCCCC[C@H](NC(=O)[C@H](CC(=O)O)NC(=O)[C@H](CC(C)C)NC(=O)[C@H](Cc1ccc(O)cc1)NC(=O)[C@H](CCCCN)NC(=O)[C@H](CO)NC(=O)[C@H](Cc1ccc(O)cc1)NC(=O)[C@H](CC(=O)O)NC(=O)[C@H](CO)NC(=O)[C@@H](NC(=O)[C@H](Cc1ccccc1)NC(=O)[C@@H](NC(=O)CNC(=O)[C@H](CCC(N)=O)NC(=O)[C@@H](CO)NC(=O)[C@@H](N)Cc1c[nH]cn1)[C@@H](C)O)[C@@H](C)O)C(=O)N[C@@H](CCCNC(=N)N)C(=O)N[C@@H](CCCNC(=N)N)C(=O)N[C@@H](C)C(=O)N[C@@H](CCC(N)=O)C(=O)N[C@@H](CC(=O)O)C(=O)N[C@@H](Cc1ccccc1)C(=O)N[C@H](C(=O)N[C@@H](CCC(N)=O)C(=O)N[C@@H](Cc1c[nH]c2ccccc12)C(=O)N[C@@H](CC(C)C)C(=O)N[C@@H](CC(C)C)C(=O)N[C@@H](CC(N)=O)C(=O)N[C@H](C(=O)NCC(=O)NCC(=O)N1CCC[C@H]1C(=O)N[C@@H](CO)C(=O)N[C@@H](CO)C(=O)NCC(=O)N[C@@H](C)C(=O)N1CCC[C@H]1C(=O)N1CCC[C@H]1C(=O)N1CCC[C@H]1C(=O)N[C@@H](CO)C(N)=O)[C@@H](C)O)C(C)C)C(=O)O", "test system": "rhesus monkey, both sexes, plasma", "conditions": "subcutaneous, 20 µg/kg, multiple doses, day 1", "quantity": "half-life", "result": "3.07 ± 1.28 h"}
